Assay results of several laboratories.
Protocols differ between the studies behind these lines. Numbers after ± are the reported error.

SMILES = CC(C)c1cccc(C(C)C)c1-n1ccn(-c2c(C(C)C)cccc2C(C)C)c1=[Se].[Cl][Au]; cell line = PSN1; assay = cell growth or viability, MTT; setting = 72 h; IC50 = 4.1 µM
SMILES = COc1ccc2nc(NC(=O)c3ccc([C@H](N)c4ccccc4)cc3)sc2c1; cell line = NCI-H2122; assay = cell growth or viability; IC50 = 0.007 µM
SMILES = [Cl][Au].[Se]=c1n(C23CC4CC(CC(C4)C2)C3)ccn1C12CC3CC(CC(C3)C1)C2; cell line = A2780 ADR; assay = MTT; setting = 72 h; IC50 = 0.3 ± 0.1 µM
SMILES = CC(=O)Oc1ccccc1C(=O)[O][Pt]([NH2])([NH2])([Cl])([Cl])[O]C(=O)C(Cl)Cl; cell line = PSN1; assay = cell growth or viability, MTT; setting = 72 h; IC50 = 0.06 µM
SMILES = Cc1cc(C)c([N+]#[C][Pd-]([Cl])([Cl])=[C](Nc2ccc(CN[C](NC(C)(C)C)=[Au][Cl])cc2)Nc2c(C)cc(C)cc2C)c(C)c1; cell line = OVCAR-3; assay = cell growth or viability; IC50 = > 100 µM
SMILES = O=c1ccn([C@@H]2O[C@H](CO)[C@@H](O)[C@H](F)[C@H]2O)c(=O)[nH]1; cell line = L1210; assay = cell growth or viability; IC50 = > 200 µM
SMILES = NC1=C(NCCCN2CCCCC2)C(=O)c2ccccc2C1=O; cell line = HEC-1-A; assay = cell growth or viability, MTT; setting = 48 h; IC50 = 27 µM
SMILES = C/C1=C\CC[C@@]2(C)O[C@H]2[C@H]2OC(=O)[C@@H](CSC(=S)N3CCN(CCO)CC3)[C@@H]2CC1; cell line = KG-1a; assay = cell growth or viability, MTT; setting = 72 h; IC50 = 8.1 µM
SMILES = c1ccc(-n2c(-c3cccs3)nc3c4ccccc4c4ccccc4c32)cc1; cell line = human foreskin fibroblasts HFF; assay = cell viability, colorimetric; setting = 72 h; IC50 = > 1000 µg/mL
SMILES = CN(C)C(=S)N(C)N=Cc1ccccc1SSc1ccccc1C=NN(C)C(=S)N(C)C; cell line = breast, ovarian, colorectal cancer cells; assay = MTT; setting = 72 h, all cell lines of panel; IC50 = < 1 µM
SMILES = CCC(C(=O)O)C1CCC(C)C(C(C)C(O)C(C)C(=O)C(CC)C2OC3(C=CC(NCc4cn(Cc5ccccc5)nn4)C4(CCC(C)(C5CCC(O)(CC)C(C)O5)O4)O3)C(C)CC2C)O1 (stereo not drawn); cell line = HMLER CD24low/CD44high; assay = cell proliferation; setting = 72 h; IC50 = 0.09 ± 0.02 µM
SMILES = C=C1C(=O)OC2CC3=C[C@@H](C/C(C)=C/C(OC(=O)Cc4cccc5ccccc45)[C@H]12)OC3=O (stereo partly drawn); cell line = SK-N-MC; assay = cell growth or viability, MTT; setting = 24 h; IC50 = 0.26 µM
SMILES = Cc1c(C)n(-c2c(C(C)C)cccc2C(C)C)c(=[Se])n1-c1c(C(C)C)cccc1C(C)C.[Cl][Ag]; cell line = LoVo-OXP (oxaliplatin-resistant); assay = MTT; setting = 72 h; IC50 = 0.6 ± 0.2 µM
SMILES = C=C(C)[C@@H](O)COc1c2ccoc2cc2oc(=O)ccc12; cell line = L5178Y; assay = cell growth or viability, MTT; setting = 24 h; IC50 = 51.3 µM
SMILES = FC(F)(F)c1n[nH]cc1-c1nc2ccc3[nH]ncc3c2c2c1CCCCC2; cell line = MV4-11; assay = cell growth or viability, resazurin; setting = 72 h; IC50 = 0.0091 µM
SMILES = Oc1cccc2[nH]c(/C(=N/OCc3ccccc3)c3cc4cccc(O)c4o3)nc12; cell line = HCT-15 (KRAS G13D); assay = cell viability, CellTiter-Glo; setting = 72 h; IC50 = 25.6 ± 3.7 µM
SMILES = COc1cc(-c2nc3ccc(C(=O)NCCCN(C)C)cc3n2C2CCC2)cc(OC)c1OC; cell line = 293 T-BRE-Luc; assay = reporter gene, inhibitor; setting = 6 h, together with: BMP2-induced BMP2 5 ng/mL; IC50 = 2.14 µM
SMILES = C=CC(=O)N1CCCC(n2c(=O)c3ncccc3n(Cc3ccc(Oc4ccccc4)cc3)c2=O)C1 (stereo not drawn); cell line = VL51; assay = cell growth or viability, MTT; setting = 72 h; IC50 = 0.5 µM
SMILES = C=CCc1ccc(OCc2nnc(SCC(=O)Nc3ccccc3C(=O)OC)o2)c(OC)c1; cell line = MCF7, SK-OV-3, PC-3; assay = cell growth, MTT; IC50 = ≤ 10 µM
SMILES = O=C(/C=C/c1ccc(-c2ccccc2)cc1)NC(=O)N[C@@H]1O[C@H](CO)[C@@H](O)[C@H](O)[C@H]1O; cell line = L1210; assay = cell growth or viability; setting = 48 h; IC50 = 206 µM
SMILES = CC(C)(O)C(O)COc1c2ccoc2cc2oc(=O)ccc12 (single isomer, unassigned; (+)); cell line = L5178Y; assay = cell growth or viability, MTT; setting = 24 h; IC50 = > 100 µM
SMILES = CC[C@H](C)[C@H](N)C(=O)Nc1ccc2nc(Cc3c[nH]c4ccccc34)[nH]c2c1; cell line = HCT-15 (KRAS G13D); assay = cell viability, CellTiter-Glo; setting = 72 h; IC50 = 14.3 ± 2.7 µM
SMILES = CCCCN(CCCC)C(=S)SC[C@@H]1C(=O)O[C@H]2[C@H]1CC/C(C)=C/CC[C@@]1(C)O[C@@H]21; cell line = KG-1a; assay = cell growth or viability, MTT; setting = 72 h; IC50 = 13.5 µM
SMILES = COC(=O)[C@H]1[C@H]2C[C@H]3O[C@@]4(CCN3C[C@H]2C[C@@H](OC(=O)c2cc(OC)c(OC)c(OC)c2)[C@@H]1OC)C(=O)Nc1cc(OC)c(-c2ccc(C)cc2)cc14; cell line = SU-DHL-4; assay = cell growth or viability, trypan blue; setting = 72 h; IC50 = 1.39 µM
SMILES = Cc1n[nH]c(C)c1-c1nc2ccc3[nH]ncc3c2c2c1CCCC2; cell line = MV4-11; assay = cell growth or viability, resazurin; setting = 72 h; IC50 = 0.159 µM
SMILES = CCCC(CCC)C(=O)[O][Pt]([NH2])([NH2])([Cl])([Cl])[O]C(=O)c1ccccc1OC(C)=O; cell line = 2008 cisplatin-sensitive; assay = cytotoxicity, MTT; setting = 72 h; IC50 = 0.69 ± 0.08 µM
SMILES = Cc1nc(Nc2ncc(C(=O)Nc3c(C)cccc3Cl)s2)cc(N2CCN(CCOC(=O)CCCCCCCCCCN)CC2)n1; cell line = BV-173; assay = cell growth or viability, MTT; setting = 72 h; IC50 = < 5.12e-05 µM
SMILES = CC(C)c1cccc(C(C)C)c1N1CCN(c2c(C(C)C)cccc2C(C)C)C1=[Se].[Cl][Ag]; cell line = LoVo-OXP (oxaliplatin-resistant); assay = MTT; setting = 72 h; IC50 = 4.5 ± 0.1 µM
SMILES = CN1CCN(C(=O)c2cccc(-c3ccc4[nH]c5ncc(/C=C/c6ccccc6)cc5c4c3)c2)CC1; cell line = parental Ba/F3 (IL-3 dependent); assay = cell proliferation, [3H]-thymidine incorporation; IC50 = 2.8 µM
SMILES = C=C1C(=O)O[C@H]2CC3=C[C@@H](C/C(C)=C/[C@@H](OC(=O)/C=C/c4ccccc4)[C@H]12)OC3=O; cell line = normal human melanocytes; assay = viability, MTT; setting = 24 h; IC50 = > 10 µM
SMILES = CC(C)c1cccc(C(C)C)c1-n1c(Cl)c(Cl)n(-c2c(C(C)C)cccc2C(C)C)c1=[Se].[Cl][Ag]; cell line = A2780 ADR; assay = MTT; setting = 72 h; IC50 = 0.2 ± 0.02 µM
SMILES = C/C1=C\CC[C@@]2(C)O[C@H]2[C@H]2OC(=O)[C@@H](CSC(=S)NCCN(C)C)[C@@H]2CC1; cell line = KG-1a; assay = cell growth or viability, MTT; setting = 72 h; IC50 = 7.9 µM
SMILES = CC1OC(OCC2OC(Oc3cc(O)c4c(=O)cc(-c5ccc(O)c(O)c5)oc4c3)C(O)C(O)C2O)C(O)C(O)C1O (stereo not drawn); cell line = MDA-MB-231-pcDNA breast cancer; assay = cytotoxicity, resazurin reduction; setting = 72 h; IC50 = > 100 µM
SMILES = CC1=CC2(C)C(=C(C)C3C4CC(C)CC(C)C4C4Oc5ccc(cc5)CC5(O)NC(=O)C(=C(O)C2C43)C5Nc2ncnc3c2ncn3C2OC(CO)C(O)C2O)C1C (stereo not drawn); cell line = L5178Y; assay = cell growth or viability, MTT; setting = 72 h; IC50 = 2 µM
SMILES = CC(C)=CCC1=C(O)c2c(occ(-c3ccc(O)cc3)c2=O)C(CC=C(C)C)(CC=C(C)C)C1=O; cell line = MDA-MB-231, Huh-7, KKU100, NHDF cells; assay = cell viability, MTT; setting = 24 h; IC50 = 13.9 to 30.9 µM
SMILES = [Cl][Cu-][c]1n(-c2c(C(c3ccccc3)c3ccccc3)cc(C(c3ccccc3)c3ccccc3)cc2C(c2ccccc2)c2ccccc2)c2c([n+]1-c1c(C(c3ccccc3)c3ccccc3)cc(C(c3ccccc3)c3ccccc3)cc1C(c1ccccc1)c1ccccc1)-c1cccc3cccc-2c13; cell line = PSN1; assay = cell growth or viability, MTT; setting = 72 h; IC50 = > 50 µM
SMILES = CC(C)c1cccc(C(C)C)c1[N+]#[C][Pt-2]([Cl])([Cl])[C]#[N+]c1c(C(C)C)cccc1C(C)C; cell line = OVCAR-3; assay = cell growth or viability; IC50 = > 100 µM
SMILES = [NH2][Pt]1([NH2])([Cl])([O]C(=O)C(Cl)Cl)[O]C(=O)C2(CC(=O)C2)C(=O)[O]1; cell line = SGC-7901/CDDP cisplatin-resistant; assay = cell viability, MTT; setting = 48 h; IC50 = 92.5 ± 2.56 µM
SMILES = CCCCCCCCCCCCCCCCCCCCCCCC(=O)OCC(O)CO (stereo not drawn); cell line = J774.2; assay = NO release, inhibitor; setting = LPS-stimulated; IC50 = > 100 µg/mL
SMILES = COc1cccc2c1C(=O)c1c(O)c3c(c(O)c1C2=O)CC(O)(C(=O)CO)CC3OC1CC(NC(=O)CCC2=C(C)C(=O)C=C(C(C)C)C2=O)C(O)C(C)O1 (stereo not drawn); cell line = H-BM1 bone marrow fibroblasts; assay = cytotoxicity, MTT; setting = 72 h; IC50 = ~16 µM
SMILES = CC(C)c1ccc(C[C@H](C)C(=O)N[C@@H]2O[C@H](CO)[C@@H](O)[C@H](O)[C@H]2O)cc1; cell line = L1210; assay = cell growth or viability; setting = 48 h; IC50 = > 250 µM
SMILES = CN1CCN(c2ccc(Nc3ncc(Cl)c(Nc4ccccc4NS(=O)(=O)C4CC4)n3)cc2)CC1; cell line = PC-9; assay = cell growth or viability, CCK-8; setting = 48 h; IC50 = 0.0156 µM
SMILES = CC(C)c1ccc(C[C@H](C)C(=O)NC(=O)N[C@@H]2O[C@H](CO)[C@@H](O)[C@H](O)[C@H]2O)cc1; cell line = L1210; assay = cell growth or viability; setting = 48 h; IC50 = > 250 µM
SMILES = Cc1cc(C)c(N[C](NCc2cccc(N[C](Nc3c(C(C)C)cccc3C(C)C)=[Pt-]([Cl])([Cl])[C]#[N+]c3c(C(C)C)cccc3C(C)C)c2)=[Au][Cl])c(C)c1; cell line = OVCAR-3; assay = cell growth or viability; IC50 = > 100 µM
SMILES = C=C1C(=O)OC2C1CCC1(C)CC1CCC1(C)OC21 (stereo not drawn); cell line = B117P murine AML cells; assay = cell growth; IC50 = 2.9 ± 0.6 µM
SMILES = N#Cc1c(-c2cccs2)cc(-c2cccc3ccccc23)nc1Nc1ccc(Nc2nc(-c3cccc4ccccc34)cc(-c3cccs3)c2C#N)cc1; cell line = RKOp27; assay = cell growth or viability, MTT; setting = 72 h; IC50 = 0.077 µM
SMILES = C(=C\c1cnc2[nH]c3ccc(-c4ccc(OCc5nnn[nH]5)cc4)cc3c2c1)/c1ccccc1; cell line = parental Ba/F3 (IL-3 dependent); assay = cell proliferation, [3H]-thymidine incorporation; IC50 = 7.3 µM
SMILES = Cc1cc(C)c([N+]#[C][Pt-]([Cl])([Cl])=[C](Nc2ccc(CN[C](NC(C)(C)C)=[Au][Cl])cc2)Nc2c(C)cc(C)cc2C)c(C)c1; cell line = OVCAR-3; assay = cell growth or viability; IC50 = > 100 µM
SMILES = COc1cc(N2CCN(C)CC2)ccc1Nc1ncc2c(n1)N(C)c1ccc(C)cc1C(=O)N2CC(F)(F)F; cell line = PaTu 8988t; assay = cell growth or viability; setting = 5 days; IC50 = > 20 µM
SMILES = Cc1cn([C@@H]2O[C@H](CSSC[C@H]3O[C@@H](n4cc(C)c(=O)[nH]c4=O)[C@H](O)[C@@H](F)[C@@H]3O)[C@@H](O)[C@H](F)[C@H]2O)c(=O)[nH]c1=O; cell line = L1210; assay = cell growth or viability; IC50 = > 500 µM
SMILES = CC(=O)OC[C@H]1O[C@@H](NC(=O)NC(=O)/C=C/c2ccc(-c3ccccc3)cc2)[C@H](OC(C)=O)[C@@H](OC(C)=O)[C@@H]1OC(C)=O; cell line = L1210; assay = cell growth or viability; setting = 48 h; IC50 = 91 µM
SMILES = COc1ccc(C[C@H]2COC(=O)[C@@H]2Cc2ccc(OCCCCCCCCCC(=O)NO)c(OC)c2)cc1OC; cell line = MV4-11; assay = cell growth or viability, CCK-8; setting = 48 h; IC50 = > 5 µM
SMILES = CC(C)(C)c1cc(CN(Cc2ccccn2)Cc2ccccn2)c(O)c(CN(Cc2ccccn2)Cc2ccccn2)c1; cell line = CHO-K1; assay = cytotoxicity; setting = 72 h; IC50 = 78 ± 2 µM
SMILES = CN1CCCNC(=O)CCC(=O)NCCCN(C)CCCNc2cccc3c2C(=O)c2cccc(c2C3=O)NCCC1; cell line = HSC-2; assay = cell growth or viability, CCK-8; setting = 48 h; IC50 = > 20 µM
